# Experimental data pooled from the literature.
# Every numbered part comes from another study and shows a few of its results, in no order.

# Sample 1
# Target: RNA binding protein fox-1 homolog 2, RRM domain, GST-SBP tag (RBFOX2, Homo sapiens, UniProt O43251-10, residues 100-194)
# Method: RNA Bind-n-Seq
# Molecule type: RNA
# Matrix: in vitro
# Tested at: 365 nM
# Setting: natural RNA segment, single round, ends assumed
# Relative to: no-protein control
# Direction: higher = stronger binding
# Shared flanks, not repeated: GGGAGUUCUACAGUCCGACGAUC … UGGAAUUCUCGGGUGCCAA
# Construct (chain): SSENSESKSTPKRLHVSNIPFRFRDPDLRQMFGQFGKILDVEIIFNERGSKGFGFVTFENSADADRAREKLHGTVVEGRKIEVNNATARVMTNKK
Sequence,RBNS enrichment (R)
UUGGGGCUGUGCUUAAGAAUUUAAGCUCUGUUUUAAAGCCGAAGAAGAAAACAUUUGAAUUUACCUUCAUAUGCCACUAAGAACAAAAGCUCUGAAGUUCUUCCUGCUGG,0.282
GGUAUACGGUGCUAAUUAGUAAAAUAUUGAAGGCAAUAUUUUACUGCUAGCUUGCAAAGUUAUGAGAGUUUAAAAAAUAAAAUAUAUGAAAAUAUGUAAAGCUGUUGAGA,0.819
GAAAUUGCCAGUGUGUACUUGGCUUAACUCAAGAACAGUUUCUUCUGGAUUCCUUAUUUGAUUUAUUUAACCUAAUUAUAUUCUAAUAUUGCAAAUAUUACCAUAAGUGG,0.582
UUAUGAGCUGAACAUAAAAAGUUUUGGCUGGCUUAUGUGAUUGAGGCCAUUAACACUGAUAAGUAUGAAUAUACAGAUAUGGCUUAGGUUUCUUCAAGAGGAAACAUAUU,0.834
UUUUUUUCGUGUGUGUUUUUGUUAACUACGCUACAGAUAUUGAAUGCACCUUGAGAUAAUUUAGUGUUUUUAACUGGUACAUAAUUUAUCAAGCAGUACAUGAAAGUGUA,0.524
GUUACAUAAAUGAGAAAAAGCUAUUAUGCUGAUGGAGCAUGCUUUUUAAAUCCUUUAAAAACACUCACCAUAUAAACUUGCAUUUGAGCUUGUGUGUUCUUUUGUUAAUG,3.46
ACUAAUUAUUAUUUUAAAAUAUAUGAAGACAAUAAUUCUACAUGUUGUCUUAAGAUGGAAAUACAGUUAUUUCAUCUUUUAUUCAAGGAAGUUUUAACUUUAAUACAGCU,0.749
CUCAAGACUUCAAGGCCACUCUCCCCAUAAACAUCAGACUACAGAUUUAGGUGGAAGAGCAGCCAUGUUUGAAGGGCACAUGUGAUGAGUGGGGGGCAGCAAGAUGCCAU,1.04
CUUGUCCCCUGCUCUCUCUUCUACCUACCUGCCUACCCCUGCAGAUCCUGUGGGCAGACACCUUACUCUGGAGCCAUUCCACCUGCCUGUCACCUGGGUCUGAGAAGCCU,0.641
GCUGUAUGAUAAAUUGUUGAAAUGCAAGUGUAAAUAUUUUUUAUGUUAAUCCAGUUUCCUAUUAGAAAGUGUGUCUUUGCUAUUUCCUCUGUAAGAGAAUAGAAUGGCCU,0.974
AUGUCCCUUGUGCAUUGAGUGCAUCCCCGCUGGUGACUAAGCUCGCAGCAAGCGGCUACCCCCCGAUCUGCAAAAGGGCCUCUCCCUUUGUGUUCUAUACAUUGUGAAUC,0.601
UCUCUGCUCAAAGCUGCCUGUCUCCAGCCCAGACCUUUGCUGGGUGCACCAGAGCAUCUCAGCAGGCAGGCAUUUUGUGGCAUUUAUGGCCUGUCACUCCCUGUAUUUCU,0.468

# Sample 2
# Target: RING finger protein unkempt homolog, zinc fingers 1-6, GST-SBP tag (UNK, Homo sapiens, UniProt Q9C0B0, residues 30-357)
# Method: RNA Bind-n-Seq
# Molecule type: RNA
# Matrix: in vitro
# Tested at: not given
# Setting: RNA with constant flanks, ends assumed
# Relative to: input RNA pool
# Direction: higher = stronger binding
# Shared flanks, not repeated: GGGAGUUCUACAGUCCGACGAUC … CAACAGAGGAUUGAGCAUCA
# Target sequence (chain): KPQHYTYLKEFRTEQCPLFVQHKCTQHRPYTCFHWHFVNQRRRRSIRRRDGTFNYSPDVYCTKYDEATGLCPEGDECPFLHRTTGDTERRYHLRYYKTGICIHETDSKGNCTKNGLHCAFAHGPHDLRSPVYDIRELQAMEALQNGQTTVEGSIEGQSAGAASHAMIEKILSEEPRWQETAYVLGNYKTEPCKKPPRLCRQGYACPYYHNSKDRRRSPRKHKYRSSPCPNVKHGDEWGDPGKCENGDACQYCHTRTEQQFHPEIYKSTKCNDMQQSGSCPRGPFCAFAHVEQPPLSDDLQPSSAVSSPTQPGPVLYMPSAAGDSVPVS
Sequence,bound/input enrichment [ratio]
CAUUUCACAACUAGAUUGUAUAAGGAUAUUAGCUGUGAUGAGACUCACUGCAUUAUUUUUUUCCGUGAAUUUUAUGAAAUCCCCGUUCCAUUCAACAGGCACAUGUUUAAAAGAGCUUUG,0.336
UCAUGUAGUUCGUUUUUAAUUUCAAGCAAAUCUUAUUGUACUUGAAUGUGCCCUGUUUUGUCCGCACACCUAGACUUGCUGUAACUGUACUCAUGUCCCAGUAUGUACCUUCUUUCUAUG,1.53
GAAGCUCAGCACUUAACAACUGACACCCCAAAAGACGUAGAAAAGGUUUACAAAAUAAUCCCGUUUACGAAGAAAUCUUGUGCUAGAAUACUUUUUAAAGUAUUUUUGAAUACCAUUAAA,0.251
AUGCUCUUAGAAGCUGAAAAUGACAAAGAGGUCGAAAUUCUUAAAGACAUCCGAGCACAUUUCCGCGCCAUGGUUGCCAACUUGAUCCAGUGUGUUCCAGUUCAUCACAGAAGAUUUCUC,0.141
AUGAAGGAGGCAUUUGGCUUUAUUGAAAGAGGUGAUGUUGUAAAAGAGAUAUUCUUUCACUACCGUGAAUUUAAGGGUGACUUAGAAACCUUACAGCCUGGCGAUGAUGUGGAAUUCACA,0.208
CGCCGUGGUGGCCGUUAAACGGUCUCAGAGCGGAGCUAUCGGUUGUCUGCGGCCGCCGUGAGCUUUGCUUCGUUUCCUGAAGAUGGAGGGUCCUUUGUCCGUGUUCGGGGACCGCAGCAC,0.0798
GGACUGCAGAAUGGCUCAGACUUGCAGUUCAUCGAAAUGCAGAGAGAUGCCAAUAGACAAAUCCGCGAAUACAAAUUUAAGCUUUCAAAAGCAGAACAGGAUAUAACUACCUUGGAGCAA,0.154
CAUCGCAUGCCCAGGGACCACUGCCUGGCAUUAUCGCAUGCUGGGAUCAUCGGGGGAGGGCCGUGAAGCUCACCACUGUCCUUUGUUUUGGAGAUUUUUAUUUUUGCAUAAGUAGUCCAU,0.0888
AAAGGAGAAUCUGGCCAGUCAUGGCCAAGGUUAACAAAAGAAAGGGCAAAGCUUAAUUGGCUCCGUGUCGACUUCAAUAAUUGGAAAGACUGGGAAGAUGAUUCAGAUGAAGACAUGUCU,0.236
UGACAAAAUGUGAUGAGAGCUUCUUGAACCGGUAAACUAGUACAGGUCUGAGAAAGACAUAUCCGAAGAAUCAUUAUACUUCCUUGAAUUAUAUUUAUUUUCAUGUUUCUCUAAUGCAAA,0.656
AUGGAAAAGGAUUCUCUGCCUCGCUUUGUGCGCUCUGAGUUUUAUCAGGAGUUAAUCAAGCCGUAAUUUAGCCAGGCUAUGAAAUCAUCCUGUGAGUUAUUUCCUCCAUAAUAACCCUGC,0.272

# Sample 3
# Target: Prothrombin, mature alpha-thrombin (F2, Homo sapiens, UniProt P00734)
# Method: aptamer microarray, sandwich
# Molecule type: DNA with 2'F-ANA
# Matrix: in vitro
# Tested at: 200 nM
# Setting: whole 15-mer aptamer, many near background
# Together with: Cy3 exosite-II aptamer, 400 nM
# Direction: higher = stronger binding
# Sequence: GGTTGGTGTGGTTGG
Modification,mean fluorescence intensity [a.u.]
2'F-ANA at 2 3 7 9 10 11 12,419
2'F-ANA at 1 2 3 5 6 8 10 11 12 15,55.9
2'F-ANA at 1 3 4 7 9 15,198
2'F-ANA at 2 4 5 7 8 9 11 13 15,53.3
2'F-ANA at 1 2 4 6 9 10,61.8
2'F-ANA at 1 6 8 9 11 13 14,54.4
2'F-ANA at 6 7 11 13 14,159
2'F-ANA at 7 8 9 14,226
2'F-ANA at 4 6 10,87.9
2'F-ANA at 3 7 9 10 11 12 13 14,450
2'F-ANA at 1 4 7 10 11 12 14 15,49.1
2'F-ANA at 3 5 8 14 15,76.5
2'F-ANA at 1 5 6 7 8 10 11 12 15,50
2'F-ANA at 2 4 6 9 10 12 13 14 15,61.7
2'F-ANA at 2 3 4 5 7 10 11 12 14,47.2
2'F-ANA at 3 6 7 8 10 13 14 15,360
2'F-ANA at 1 2 3 5 6 7 12 14 15,65.5
2'F-ANA at 4 6 7 8 9 11 13,212
2'F-ANA at 1 2 3 6 7 9 12 13 15,270
2'F-ANA at 1 2 4 5 6 8 13 14,48.7
2'F-ANA at 1 3 4 10 12 15,79.4
2'F-ANA at 5 7 8 10 12 13,50
2'F-ANA at 5 6 7 9 10 13 15,49.1
2'F-ANA at 1 2 5 6 10 13 14,47
2'F-ANA at 3 7 8 11 13 14,811

# Sample 4
# Target: Ras GTPase-activating protein-binding protein 1, full length (G3BP1, Homo sapiens, UniProt Q13283)
# Chain of UniProt Q13283 (whole entry, looked up): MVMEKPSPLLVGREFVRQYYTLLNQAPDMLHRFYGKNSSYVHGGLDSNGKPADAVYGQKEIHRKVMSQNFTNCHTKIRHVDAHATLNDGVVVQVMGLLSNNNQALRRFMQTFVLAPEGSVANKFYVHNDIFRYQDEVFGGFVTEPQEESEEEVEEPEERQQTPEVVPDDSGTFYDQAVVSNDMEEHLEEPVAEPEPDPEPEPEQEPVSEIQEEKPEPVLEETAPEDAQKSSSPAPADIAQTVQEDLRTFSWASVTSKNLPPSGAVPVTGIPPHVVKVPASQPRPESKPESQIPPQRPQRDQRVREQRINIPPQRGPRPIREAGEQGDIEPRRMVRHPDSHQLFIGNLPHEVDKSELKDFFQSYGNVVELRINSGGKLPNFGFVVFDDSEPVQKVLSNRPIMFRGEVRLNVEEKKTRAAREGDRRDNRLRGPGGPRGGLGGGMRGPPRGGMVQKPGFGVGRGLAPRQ
# Method: RNA Bind-n-Seq
# Molecule type: RNA
# Matrix: in vitro
# Tested at: 200 nM
# Setting: whole 134-nt RNA, ends assumed
# Together with: 150 mM KCl
# Relative to: input library
# Direction: higher = stronger binding
# Shared flanks, not repeated: GGGAGUUCUACAGUCCGACGAUC … UGGAAUUCUCGGGUGUCAAGG
Sequence,log2 enrichment
UCAAGUCCUGUGCUACACAUCGUAUGUACCGAAUCGGAGGAAAAAAAGGAAAGGAAAGUAUUAUGUUACGCCGUUCGGAUCUGCACUUCC,-0.777
CCUGUGCUACACAUCGUAUGUACCGAAUCGGGAAAAAAGGGAAAAAAGGGGAAAAAAGGGAAAGUAUUAUGUUACGCCGUUCGGAUCUGC,-0.577
AAGUCCUGUGCUACACAUCGUAUGUACCGAAUCGGAAAAAGGUUUUUGGUUUUUGGAAAGUAUUAUGUUACGCCGUUCGGAUCUGCACUU,-1.66
CUGUGCUACACAUCGUAUGUACCGAAUCGGGUUUUUUUGGUUUUUUUGGGGUUUUUUUGGGAAAGUAUUAUGUUACGCCGUUCGGAUCUG,-1
CAAGUCCUGUGCUACACAUCGUAUGUACCGAAUCGGGCCCGGGCCCGGGCCCGGGGAAAGUAUUAUGUUACGCCGUUCGGAUCUGCACUU,-1.67
GUCCUGUGCUACACAUCGUAUGUACCGAAUCGGGGAAAGGGGAGGGGAAAAAAAGGGGAAAGUAUUAUGUUACGCCGUUCGGAUCUGCAC,0.313
CCUCAAGUCCUGUGCUACACAUCGUAUGUACCGAAUCGGGGAGGAGGAGGGGAAAGUAUUAUGUUACGCCGUUCGGAUCUGCACUUCCAG,0.578
GCAGGAAGUAAAAACAAAAGGAAAUGCUUCGGAUAGUGGCAGGGGUGGGGGUUGCUAAGGAAAGGGUGGGAUGGGAGUGGGUAAAGAGUU,0.998
UCCUGUGCUACACAUCGUAUGUACCGAAUCGGGAAAAAAGGAAAAAAGGGAAAAAAGGGGAAAGUAUUAUGUUACGCCGUUCGGAUCUGC,-0.512
CAAGUCCUGUGCUACACAUCGUAUGUACCGAAUCGGCCCGGGCCCGGGCCCGGGGAAAGUAUUAUGUUACGCCGUUCGGAUCUGCACUUC,-1.18
GCAGGAAGUAAAAACAAAUGGAAAUGCUUCGGAUAGUGGCAGGGGUGGGGGUUGCUAAGGAAAGGGUGGGAUGGGAGUGGAUAAAGAGUU,0.881
AGUCCUGUGCUACACAUCGUAUGUACCGAAUCGGGUUUUUUUGGGUGGGAAAAAGGGAAAGUAUUAUGUUACGCCGUUCGGAUCUGCACU,-0.105
UGGCCCUGGUGGCAUGGGGGGAGGAAGAGGUGGCCUCAUGGAUCGUGGUGGUCCCGGUGGAAUGUUCAGAGGUGGCCGUGGUGGAGACAG,0.337
CCUCAAGUCCUGUGCUACACAUCGUAUGUACCGAAUCGUGUGUGUGUGUGUGUAAAGUAUUAUGUUACGCCGUUCGGAUCUGCACUUCCA,0.00369

# For quick reference, copied from above (sample 3):
Modification,mean fluorescence intensity [a.u.]
2'F-ANA at 1 6 8 9 11 13 14,54.4
2'F-ANA at 6 7 11 13 14,159
2'F-ANA at 7 8 9 14,226
2'F-ANA at 4 6 10,87.9
2'F-ANA at 3 7 9 10 11 12 13 14,450
2'F-ANA at 1 4 7 10 11 12 14 15,49.1
2'F-ANA at 3 5 8 14 15,76.5
2'F-ANA at 1 5 6 7 8 10 11 12 15,50
